Published values from different studies.
Compare with care: the assays were run in different laboratories. Numbers after ± are the reported error.

`CN1CC[C@@]23CCCC[C@@H]2[C@@H]1Cc1ccc(O)cc13` has an AUC(0-t) of 65.9 ± 32.6 ng·h/mL (Wistar rat, both sexes, plasma; oral, 5 mg/kg DEM, DEM 2 h after pretreatment, added: TCE 100 mg/kg single pretreatment).
For `C[C@@H]1N=C(c2ccccc2F)c2cc(Br)ccc2NC1=O`, the concentration was 188 nM (male Wistar rat, plasma; intraperitoneal, 0.5 mg/kg, 20 min).
With `NC(=O)OC[C@H](N)Cc1ccccc1` the Tmax was 0.5 h (male Swiss mouse, plasma; oral, 10 mg/kg).
`COc1ccsc1CNCC[C@@]1(c2ccccn2)CCOC2(CCCC2)C1` has a clearance of 728 ± 198 mL/min (healthy human, normal hepatic function, plasma; intravenous, 1 mg single dose, arithmetic mean).
For `Cc1ncc2n1-c1ccc(Cl)cc1C(c1ccccc1F)=NC2`, the t1/2 was 5.43 h (healthy volunteers, plasma; oral, 7.5 mg single dose, day 1, arithmetic mean, alone).
For `C=C1C[C@@H]2[C@H](CC[C@]3(C)C(=O)CC[C@@H]23)[C@@]2(C)C=CC(=O)C=C12`, “median plasma concentration” read 10.7 ng/mL (LC-MS/MS; postmenopausal breast cancer women, plasma; oral, 25 mg/day, 2 h, CYP3A4*22 heterozygous).
`N[C@@]1(c2ccccc2Cl)CCC[C@@H](O)C1=O` gave a Cmax of 24700 ng/mL (female CD-1 mice, plasma; intravenous, 50 mg/kg, 10 min, first sampling, not true peak).
For `Cc1ncc2n1-c1ccc(Cl)cc1C(c1ccccc1F)=NC2`, “AUC(0-inf) geometric mean” read 113 ng·h/mL (healthy men, plasma; oral, 7.5 mg, without amenamevir).
With `CCCCCc1cc(O)c2c(c1)OC(C)(C)[C@@H]1CCC(C)=C[C@@H]21` the ED50 was 7.7 mg/kg (locomotor activity suppression; ICR mouse, male; subcutaneous, 60 min).
For `CN1C(=O)CC(=O)N(c2ccccc2)c2cc(Cl)ccc21`, the AUC was 3.89 ng·h/mg (CF-1 mouse, brain; intraperitoneal, 17 mg/kg, 0 to 8 h).
The Tmax of `Cc1ncc2n1-c1ccc(Cl)cc1C(c1ccccc1F)=NC2` is reported as 1.5 h (human CYP3A5*3/*7, serum; oral, added: ketoconazole 200 mg).
`COc1ccc2c(c1)[C@]13CCCC[C@@H]1[C@H](C2)N(C)CC3` gave a Tmax of 0.51 ± 0.29 h (Wistar rat, both sexes, plasma; oral, 5 mg/kg, 2 h after pretreatment, added: single TCE 100 mg/kg).
`COC(=O)C(OC(=O)c1cncn1C(C)c1ccccc1)C(C)C` (stereo not drawn) gave a selectivity ratio of 100 fold (metabolism rate; Sprague-Dawley rat, pooled blood; relative to: (R)-form over (S)-form).
With `C#Cc1ccc2c(c1)C(c1ccccc1F)=N[C@@H](C)c1c(C(=O)OCC(F)(F)F)ncn1-2` the compound remaining was under 5% (metabolic stability; human, liver microsomes; 30 min).
With `C=CCN1CC[C@]23c4c5ccc(O)c4O[C@H]2C(=O)CC[C@@]3(O)[C@H]1C5` the EC20 was over 400 µM (mitochondrial swelling; BALB/cByJ female mouse liver mitochondria; 30 min, added: succinate + rotenone; relative to: CaCl2 maximal swelling).
The half-life of `C[C@H]1CNCCc2ccc(Cl)cc21` is reported as 1.83 h (male Sprague-Dawley rat, plasma; subcutaneous, 3 mg/kg, single dose).
For `CCCCCCCCCCC(=O)O[C@H]1CC[C@H]2[C@@H]3CCC4=CC(=O)CC[C@]4(C)[C@H]3CC[C@]12C`, the serum testosterone was 89.5 ± 4.9 ng/dL (blood of hypogonadal men, plain tubes; 100 ng/mL).
`NC(=O)c1ccc2c(c1O)[C@]13CCN(CC4CC4)[C@H](C2)[C@]1(O)CCC(=O)C3` — result for “unbound brain concentration”: 23.1 nM (Sprague Dawley rat; subcutaneous, 30 min, total plasma 46.1 ng/mL).

Some of these lines once more:
For `Cc1ncc2n1-c1ccc(Cl)cc1C(c1ccccc1F)=NC2`, “AUC(0-inf) geometric mean” read 113 ng·h/mL (healthy men, plasma; oral, 7.5 mg, without amenamevir).
